Measurements of several laboratories.
Each line is one published result; not all experiments were run side by side.
Read-out: DPPH scavenging

Structure (SMILES) | assay | setting | IC50
CC(=O)C1=C(C)NC(=O)NC1c1ccc(C)cc1 (stereo not shown) |  |  | 214 µM
CCCCSc1nnc(-c2cc(Cl)ccc2Cl)o1 |  |  | 64.2 µM
Cc1ccc(-c2nc3cc(C)c(C)cc3[nH]2)o1 | absorbance |  | 1.54 µM
Cc1ccc(-c2nn(-c3ccccc3)cc2/C=C(\C#N)c2nc3ccccc3[nH]2)cc1 | absorbance |  | 98.4 µM
CC(=O)C1=C(C)NC(=O)NC1c1cccc(Cl)c1 (stereo not shown) |  |  | 273 µM
CCCCCCCCCCCCCCOc1c(O)cc(C(=O)O[C@@H]2Cc3c(O)cc(O)cc3O[C@@H]2c2cc(O)c(O)c(O)c2)cc1O | absorbance | 1 h | 9.73 µM
O=c1cc(-c2ccc(O)c(O)c2)oc2cc(O[C@@H]3O[C@H](CO)[C@@H](O)[C@H](O)[C@H]3O)cc(O)c12 | absorbance |  | 36.4 µg/mL
O=c1c(O[C@@H]2O[C@H](CO)[C@@H](O)[C@H](O)[C@H]2O[C@@H]2O[C@H](CO)[C@@H](O)[C@H](O)[C@H]2O)c(-c2ccc(O)cc2)oc2cc(O)cc(O)c12 | absorbance |  | 195 µM
COc1cc(/C=C/C(=O)O)ccc1O | absorbance | 30 min | 15.6 µg/mL
CCCCn1cc(C(=O)O)c(=O)c2cc(F)c(Nc3ccc(OC)cc3OC)c(N)c21 | absorbance | 30 min | 251 µM
Cc1ccc(-c2nc3cc(Cl)ccc3[nH]2)o1 | absorbance |  | 1.46 µM
N#C/C(=C\c1cn(-c2ccccc2)nc1-c1cccc(Br)c1)c1nc2ccccc2[nH]1 | absorbance |  | 96 µM
CC(=O)C1=C(C)NC(=O)NC1c1ccc(Cl)cc1 (stereo not shown) |  |  | 40.7 µM
COc1cc(CN2CCN(c3ccc(C(F)(F)F)cc3)CC2)c2cc3[n+](cc2c1O)CCc1cc2c(cc1-3)OCO2 | absorbance | 30 min | 23.9 µg/mL
O=C(O)[C@H]1O[C@@H](Oc2c(-c3ccc(O)c(O)c3)oc3cc(O)cc(O)c3c2=O)[C@H](O)[C@@H](O)[C@@H]1O |  |  | 47.2 µg/mL
N#C/C(=C\c1cn(-c2ccccc2)nc1-c1ccccc1)c1nc2ccccc2[nH]1 | absorbance |  | 34.8 µM
CCCCn1cc(C(=O)O)c(=O)c2cc(F)c(Nc3cccc(OC)c3)c(N)c21 | absorbance | 30 min | 3.61 µM
COc1cc(CN2CCN(c3ccc(Cl)cc3)CC2)c2cc3[n+](cc2c1O)CCc1cc2c(cc1-3)OCO2 | absorbance | 30 min | 12.2 µg/mL
CC(C)(C)c1ccc(-c2nnc(S)o2)cc1 |  |  | 56.9 µM
CCCCn1cc(C(=O)O)c(=O)c2cc(F)c(Nc3cc(OC)c(OC)c(OC)c3)c([N+](=O)[O-])c21 | absorbance | 30 min | 641 µM
COc1cc(CN2CCN(c3ccc([N+](=O)[O-])cc3)CC2)c2cc3[n+](cc2c1O)CCc1cc2c(cc1-3)OCO2 | absorbance | 30 min | 15.1 µg/mL
Clc1ccc2[nH]c(-c3ccco3)nc2c1 | absorbance |  | 1.39 µM
Oc1c(Cl)cc(Cl)c2cccnc12 | absorbance | 30 min | 336 µM
CCCCn1cc(C(=O)O)c(=O)c2cc(F)c(Nc3cc(OC)c(OC)c(OC)c3)c(N)c21 | absorbance | 30 min | 229 µM
Sc1nnc(-c2cc(Cl)ccc2Cl)o1 |  |  | 83.6 µM
CC(=O)C1=C(C)NC(=O)NC1c1cccc(Br)c1 (stereo not shown) |  |  | 233 µM
O=[N+]([O-])c1ccc(Cl)c(-c2nnc(S)o2)c1 |  |  | 54.1 µM
N#C/C(=C\c1cn(-c2ccccc2)nc1-c1ccc([N+](=O)[O-])cc1)c1nc2ccccc2[nH]1 | absorbance |  | 94.6 µM

A few entries again:
Structure (SMILES) | assay | setting | IC50
O=[N+]([O-])c1ccc(Cl)c(-c2nnc(S)o2)c1 |  |  | 54.1 µM
CC(=O)C1=C(C)NC(=O)NC1c1ccc(C)cc1 (stereo not shown) |  |  | 214 µM
CCCCSc1nnc(-c2cc(Cl)ccc2Cl)o1 |  |  | 64.2 µM
